Assay results from different studies.
Compare with care: the assays were run in different laboratories. “And” joins repeats or separate records; there may be more than shown. Numbers after ± are the reported error.
CASP7: Caspase-7 (CASP7, Homo sapiens, UniProt P55210)
UniProt Q13148, sequence (whole entry, looked up): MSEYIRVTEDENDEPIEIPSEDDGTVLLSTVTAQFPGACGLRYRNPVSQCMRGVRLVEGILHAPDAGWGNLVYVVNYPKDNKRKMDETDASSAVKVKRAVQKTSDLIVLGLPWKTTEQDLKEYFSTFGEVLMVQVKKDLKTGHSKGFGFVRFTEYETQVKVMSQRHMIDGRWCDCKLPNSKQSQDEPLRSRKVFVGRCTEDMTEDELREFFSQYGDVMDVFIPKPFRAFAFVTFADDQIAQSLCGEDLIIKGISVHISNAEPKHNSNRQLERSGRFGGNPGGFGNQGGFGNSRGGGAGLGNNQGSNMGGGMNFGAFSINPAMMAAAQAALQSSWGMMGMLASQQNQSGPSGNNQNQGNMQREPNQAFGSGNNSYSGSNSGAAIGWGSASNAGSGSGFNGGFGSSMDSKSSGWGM
UniProt P55210, sequence (whole entry, looked up): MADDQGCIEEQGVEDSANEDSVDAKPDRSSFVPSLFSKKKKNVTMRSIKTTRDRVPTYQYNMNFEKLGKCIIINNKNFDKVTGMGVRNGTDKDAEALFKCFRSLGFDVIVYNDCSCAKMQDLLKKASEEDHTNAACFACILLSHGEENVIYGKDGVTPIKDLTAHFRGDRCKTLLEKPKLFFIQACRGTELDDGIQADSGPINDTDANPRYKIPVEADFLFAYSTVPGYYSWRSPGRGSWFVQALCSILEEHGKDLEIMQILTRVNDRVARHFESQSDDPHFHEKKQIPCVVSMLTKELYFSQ
UniProt Q13422, sequence (whole entry, looked up): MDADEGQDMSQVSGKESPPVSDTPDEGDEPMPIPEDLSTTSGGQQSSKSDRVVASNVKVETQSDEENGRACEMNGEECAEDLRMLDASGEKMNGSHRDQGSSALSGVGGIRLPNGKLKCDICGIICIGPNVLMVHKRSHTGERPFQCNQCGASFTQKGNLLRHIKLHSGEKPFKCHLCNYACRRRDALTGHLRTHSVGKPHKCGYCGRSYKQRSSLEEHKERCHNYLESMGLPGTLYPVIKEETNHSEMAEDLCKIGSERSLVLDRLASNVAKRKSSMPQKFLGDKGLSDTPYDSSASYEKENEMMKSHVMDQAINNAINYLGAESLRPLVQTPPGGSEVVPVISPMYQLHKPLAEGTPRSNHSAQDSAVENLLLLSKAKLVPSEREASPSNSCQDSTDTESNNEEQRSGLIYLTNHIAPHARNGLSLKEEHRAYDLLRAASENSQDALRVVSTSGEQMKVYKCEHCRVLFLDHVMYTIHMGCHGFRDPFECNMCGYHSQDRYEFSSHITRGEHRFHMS
UniProt Q9HB29, sequence (whole entry, looked up): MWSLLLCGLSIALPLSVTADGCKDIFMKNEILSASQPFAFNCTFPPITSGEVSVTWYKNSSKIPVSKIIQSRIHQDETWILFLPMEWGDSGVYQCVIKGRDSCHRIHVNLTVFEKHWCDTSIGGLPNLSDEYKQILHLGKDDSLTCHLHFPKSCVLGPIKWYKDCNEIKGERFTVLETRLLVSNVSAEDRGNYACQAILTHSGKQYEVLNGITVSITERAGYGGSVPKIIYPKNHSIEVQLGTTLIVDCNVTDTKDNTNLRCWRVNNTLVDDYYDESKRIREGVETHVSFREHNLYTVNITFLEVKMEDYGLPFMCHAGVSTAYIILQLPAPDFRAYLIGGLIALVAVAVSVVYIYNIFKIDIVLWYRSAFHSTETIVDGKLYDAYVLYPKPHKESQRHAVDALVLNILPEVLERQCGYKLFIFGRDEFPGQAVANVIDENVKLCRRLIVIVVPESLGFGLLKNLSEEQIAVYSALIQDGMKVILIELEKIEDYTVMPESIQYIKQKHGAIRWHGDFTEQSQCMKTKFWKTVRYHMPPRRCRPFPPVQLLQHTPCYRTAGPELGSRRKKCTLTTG
UniProt Q96SW2, sequence (whole entry, looked up): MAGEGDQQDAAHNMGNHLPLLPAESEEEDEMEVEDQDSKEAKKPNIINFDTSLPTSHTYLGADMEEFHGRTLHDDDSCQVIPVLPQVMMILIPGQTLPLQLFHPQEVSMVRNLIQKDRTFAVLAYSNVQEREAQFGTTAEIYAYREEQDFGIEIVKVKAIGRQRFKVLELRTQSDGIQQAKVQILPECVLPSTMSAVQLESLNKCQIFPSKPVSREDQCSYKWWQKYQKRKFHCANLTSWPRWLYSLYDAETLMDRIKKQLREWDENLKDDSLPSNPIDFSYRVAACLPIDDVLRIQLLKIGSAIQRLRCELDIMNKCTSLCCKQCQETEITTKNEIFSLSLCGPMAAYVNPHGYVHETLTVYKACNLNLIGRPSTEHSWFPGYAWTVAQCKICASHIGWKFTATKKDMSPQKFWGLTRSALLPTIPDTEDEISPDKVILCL
UniProt Q9BXF3, sequence (whole entry, looked up): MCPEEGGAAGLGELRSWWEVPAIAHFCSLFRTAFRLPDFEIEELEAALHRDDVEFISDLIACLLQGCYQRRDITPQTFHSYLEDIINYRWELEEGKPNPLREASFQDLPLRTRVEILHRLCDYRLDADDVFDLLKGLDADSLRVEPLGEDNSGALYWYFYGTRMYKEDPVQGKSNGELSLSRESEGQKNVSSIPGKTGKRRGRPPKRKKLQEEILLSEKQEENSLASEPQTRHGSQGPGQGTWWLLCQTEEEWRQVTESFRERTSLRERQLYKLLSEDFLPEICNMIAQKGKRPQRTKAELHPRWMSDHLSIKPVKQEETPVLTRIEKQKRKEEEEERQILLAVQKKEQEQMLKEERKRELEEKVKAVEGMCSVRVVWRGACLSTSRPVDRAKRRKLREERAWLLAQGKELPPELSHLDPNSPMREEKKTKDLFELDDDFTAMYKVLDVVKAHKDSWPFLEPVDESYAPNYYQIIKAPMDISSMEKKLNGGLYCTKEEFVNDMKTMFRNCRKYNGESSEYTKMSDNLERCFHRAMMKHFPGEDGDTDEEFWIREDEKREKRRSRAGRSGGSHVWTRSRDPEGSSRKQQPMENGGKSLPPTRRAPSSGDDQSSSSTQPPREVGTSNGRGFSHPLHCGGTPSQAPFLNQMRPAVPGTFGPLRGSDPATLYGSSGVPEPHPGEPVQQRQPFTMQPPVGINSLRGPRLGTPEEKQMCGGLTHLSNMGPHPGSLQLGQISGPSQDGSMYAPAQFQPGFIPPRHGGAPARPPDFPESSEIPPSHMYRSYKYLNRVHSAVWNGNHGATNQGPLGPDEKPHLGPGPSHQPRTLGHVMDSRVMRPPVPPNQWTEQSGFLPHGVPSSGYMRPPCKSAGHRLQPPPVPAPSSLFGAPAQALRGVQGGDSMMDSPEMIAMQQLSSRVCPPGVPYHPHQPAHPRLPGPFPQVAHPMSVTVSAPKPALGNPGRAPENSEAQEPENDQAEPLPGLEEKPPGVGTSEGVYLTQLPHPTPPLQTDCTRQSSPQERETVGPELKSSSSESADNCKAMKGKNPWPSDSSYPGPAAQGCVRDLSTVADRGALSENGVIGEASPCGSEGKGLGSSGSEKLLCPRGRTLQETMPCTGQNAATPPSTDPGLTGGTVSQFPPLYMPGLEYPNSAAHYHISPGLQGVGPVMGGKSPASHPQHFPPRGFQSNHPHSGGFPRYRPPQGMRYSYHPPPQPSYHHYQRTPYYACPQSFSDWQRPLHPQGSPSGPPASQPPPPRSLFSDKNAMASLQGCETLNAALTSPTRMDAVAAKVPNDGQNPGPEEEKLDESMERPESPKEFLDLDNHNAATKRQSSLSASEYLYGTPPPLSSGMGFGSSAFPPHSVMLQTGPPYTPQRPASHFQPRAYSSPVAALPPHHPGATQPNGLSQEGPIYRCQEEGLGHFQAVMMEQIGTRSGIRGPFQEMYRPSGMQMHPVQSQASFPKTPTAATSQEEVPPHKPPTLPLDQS
UniProt Q03431, sequence (whole entry, looked up): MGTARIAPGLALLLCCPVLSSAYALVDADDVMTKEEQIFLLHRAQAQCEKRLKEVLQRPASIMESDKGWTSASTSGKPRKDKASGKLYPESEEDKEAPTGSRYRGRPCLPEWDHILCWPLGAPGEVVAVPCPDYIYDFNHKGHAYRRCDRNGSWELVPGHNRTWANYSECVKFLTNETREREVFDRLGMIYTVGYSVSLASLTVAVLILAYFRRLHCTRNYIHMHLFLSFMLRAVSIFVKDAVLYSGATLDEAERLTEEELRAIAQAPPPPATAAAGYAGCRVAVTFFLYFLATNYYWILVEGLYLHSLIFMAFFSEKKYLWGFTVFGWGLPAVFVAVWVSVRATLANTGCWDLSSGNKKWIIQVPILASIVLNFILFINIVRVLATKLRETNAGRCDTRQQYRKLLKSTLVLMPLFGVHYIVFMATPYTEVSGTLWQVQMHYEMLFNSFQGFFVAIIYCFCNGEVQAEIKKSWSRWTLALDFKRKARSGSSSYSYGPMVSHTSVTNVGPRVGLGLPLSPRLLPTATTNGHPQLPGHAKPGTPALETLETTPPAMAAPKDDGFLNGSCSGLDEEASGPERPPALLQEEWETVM
UniProt Q5TFE4, sequence (whole entry, looked up): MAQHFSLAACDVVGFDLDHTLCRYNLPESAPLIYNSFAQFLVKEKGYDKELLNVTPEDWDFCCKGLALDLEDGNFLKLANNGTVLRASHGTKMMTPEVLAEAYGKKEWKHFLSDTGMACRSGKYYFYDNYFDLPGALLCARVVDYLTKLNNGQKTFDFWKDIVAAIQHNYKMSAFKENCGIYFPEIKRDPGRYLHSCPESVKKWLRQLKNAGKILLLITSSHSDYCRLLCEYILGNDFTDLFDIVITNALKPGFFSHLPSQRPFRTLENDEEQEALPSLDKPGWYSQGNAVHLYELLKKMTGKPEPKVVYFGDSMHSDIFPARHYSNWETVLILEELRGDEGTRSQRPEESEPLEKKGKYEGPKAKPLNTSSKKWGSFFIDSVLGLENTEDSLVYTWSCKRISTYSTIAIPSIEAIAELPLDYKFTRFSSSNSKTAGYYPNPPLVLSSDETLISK

CC[C@H](C)[C@H](NC(=O)[C@H](CO)NC(=O)[C@H](CO)NC(=O)[C@H](CCC(=O)O)NC(=O)[C@H](CCC(=O)O)NC(=O)[C@H](CCCCN)NC(=O)[C@H](CO)NC(=O)[C@@H](NC(=O)[C@H](CO)NC(=O)[C@H](CC(C)C)NC(=O)[C@H](Cc1ccccc1)NC(=O)[C@H](CCCNC(=N)N)NC(=O)[C@H](C)NC(=O)[C@H](Cc1ccccc1)NC(=O)[C@H](Cc1ccccc1)NC(=O)[C@@H]1CCCN1C(=O)[C@H](CC(C)C)NC(=O)[C@H](C)NC(=O)[C@H](CCCCN)NC(=O)CNC(=O)[C@H](CCC(N)=O)NC(=O)[C@H](CCC(N)=O)NC(=O)[C@H](CC(=O)O)NC(=O)[C@H](CC(N)=O)NC(=O)[C@@H]1CCCN1C(=O)[C@H](Cc1ccc(O)cc1)NC(=O)[C@H](C)NC(=O)[C@@H](N)CCSC)C(C)C)C(=O)N[C@@H](CCCCN)C(=O)N[C@@H](CO)C(=O)N1CCC[C@H]1C(=O)N[C@@H](CO)C(=O)N1CCC[C@H]1C(=O)N[C@@H](CC(=O)O)C(=O)N[C@@H](Cc1c[nH]cn1)C(=O)O
binding stoichiometry (uncharacterized protein (Microcystis aeruginosa MRC, UniProt B2G3C9); isothermal titration calorimetry; concentration not given, pH 8.0, 25 °C): 1.12 ± 0.02

CC(C)[C@@H]1NC(=O)[C@H](Cc2ccccc2)NC(=O)CSC[C@@H](C(N)=O)NC(=O)[C@H](CCC(=O)O)NC(=O)[C@H](CO)NC(=O)[C@H](Cc2c[nH]c3cccc(Cl)c23)NC(=O)[C@H](C2CCCCC2)NC(=O)[C@H](C(C)C)NC(=O)[C@H](Cc2ccc(O)cc2)NC(=O)[C@H](CC(=O)O)NC(=O)[C@H](Cc2c[nH]c3ccccc23)NC(=O)[C@H](Cc2ccc(N)nc2)NC(=O)[C@H](Cc2c[nH]c3ccc(Cl)cc23)NC(=O)[C@H](CCC(=O)O)NC1=O
remaining activity (Interleukin-1 receptor-like 2 (IL1RL2, Homo sapiens, UniProt Q9HB29); reporter gene (SEAP), inhibitor, HEK-Blue IL-36R reporter; HEK-Blue IL-36R cells; 100 µM, 6 h, together with: IL-36γ 0.3 ng/mL): 1.5%

O=C1c2sc(-c3ccc(N4CCC(F)C4)nc3F)nc2CCN1c1cccnc1 (centres unmarked)
specific binding (TAR DNA-binding protein 43, aggregated (TARDBP, Homo sapiens, UniProt Q13148); radioligand binding; human, FTLD-TDP type B sarkosyl-insoluble extract; 18.97 nM): 1.1 nM and 1.31 nM

COc1ccc(NC(=O)c2cc(-c3ccccc3)n(-c3ccccc3)n2)cc1
inhibition (Genome polyprotein, NS2B-NS3 protease (dengue virus type 2, UniProt P29990); reporter gene; HeLa; 12.5 µM): 18%

COc1cc(Nc2nccc(-c3cnn4nc(OC)ccc34)n2)cc(C(F)(F)F)c1
remaining binding (Receptor tyrosine-protein kinase erbB-2 (ERBB2, Homo sapiens, UniProt P04626); binding, competition with immobilised ligand; 1 µM): 91%

CCCCCCCCCCCCCCCC(=O)NCCCC[C@H](NC(=O)[C@H](CCC(=O)O)NC(=O)[C@H](Cc1ccc(O)cc1)NC(=O)[C@H](CCC(=O)O)NC(=O)COCC(=O)NCCCOCCOCCOCCCNC(=O)[C@H](Cc1c[nH]c2ccccc12)NC(=O)[C@H](CCCCN)NC(=O)[C@H](C)NC(=O)[C@H](CCCCNC(=N)N)NC(=O)[C@H](CCC(N)=O)NC(=O)[C@H](Cc1c[nH]cn1)NC(=O)[C@H](CCSC)NC(=O)[C@H](CC(C)C)NC(=O)[C@H](CCC(N)=O)NC(=O)[C@@H](NC(=O)[C@H](CCC(=O)O)NC(=O)C(C)(C)NC(=O)[C@@H](NC(=O)C(C)(C)N)C(C)C)[C@@H](C)CC)C(=O)N[C@@H](CCC(=O)O)C(=O)N[C@@H](Cc1ccc(O)cc1)C(=O)N[C@@H](CCC(=O)O)C(N)=O
cAMP luminescence AUC (Parathyroid hormone/parathyroid hormone-related peptide receptor (PTH1R, Homo sapiens, UniProt Q03431); agonist; Saos-2 with cAMP reporter; 10 nM, 30 min, ligand-on phase; higher = more cAMP): 84.5 a.u.

COC(=O)Cc1cc2c(cc1C(=O)c1ccccc1I)OCO2
desensitization time constant (Glutamate receptor 2 (Gria2, Rattus norvegicus, UniProt P19491); glutamate-evoked current, whole-cell patch clamp; HEK-293T; concentration not given, weighted tau, 500 ms pulse, together with: glutamate): 2.5 ± 0.1 ms

Cn1cc(-c2cc(N3CCCCS3(=O)=O)ccc2N[C@H]2CC[C@H](C)CC2)c2cc[nH]c2c1=O (stereo in doubt)
remaining binding (Chromatin remodeling regulator CECR2 (CECR2, Homo sapiens, UniProt Q9BXF3); binding, competition with immobilised ligand; 1 µM): 97%

CC(=O)N[C@H](C(=O)N[C@@H](CCC(=O)O)C(=O)N[C@@H](CO)C(=O)N[C@@H](CC(=O)O)C(=O)COC(=O)c1c(C)cccc1C)[C@@H](C)O
kinact/KI (CASP7; enzyme activity, inhibitor): 24500 M⁻¹ s⁻¹

Cc1ccc(NC(=O)NC(C)(C)c2cccc(NC3=CC(=O)N(C4CCC(=O)NC4=O)C3=O)c2)cc1Cl (centres unmarked)
log2 fold change (Cereblon/Ikaros (Homo sapiens, UniProt Q13422+Q96SW2); degrader, quantitative proteomics, measured: protein abundance; Jurkat; 1 µM, 4 h; relative to: DMSO): -1.74

CCCCCC=CC=C1C(=O)C=CC1CC=CCCCC(=O)O (centres unmarked)
isoTOP-ABPP competition ratio (5'-nucleotidase domain-containing protein 1 (NT5DC1, Homo sapiens, UniProt Q5TFE4); competitive isoTOP-ABPP, measured: NT5DC1 cysteine peptide; proteome, soluble, MDA-MB-231; 100 µM, together with: iodoacetamide probe; relative to: DMSO over compound-treated, higher = stronger cysteine blockade): 1.6

CC[C@H](NC(=O)[C@@H](NC(=O)[C@H](CC(=O)O)NC(C)=O)[C@@H](C)O)C(=O)N[C@@H](CC(=O)O)C(=O)COC(=O)c1c(C)cccc1C
kinact/KI (CASP7; enzyme activity, inhibitor): 363000 M⁻¹ s⁻¹

CC(=O)N(Cc1ccccc1)[C@@H](C)C(=O)N(C)[C@@H](C)C(=O)N(Cc1c[nH]c2ccccc12)[C@@H](C)C(=O)N(C)[C@@H](C)C(=O)N(CCC(C)C)[C@@H](C)C(N)=O
Hill coefficient (E3 ubiquitin-protein ligase Mdm2 (MDM2, Homo sapiens, UniProt Q00987); binding, fluorescence polarization competition; together with: fluorescent PMI peptide): 1.06 ± 0.05

Cc1cccc(C2(C(=O)Nc3c[nH]nc3-c3ccccc3)CC2)c1
number of kinases hit (human kinase panel; binding, KINOMEscan; 10000 nM, %Ctrl below 1): 0

A few entries again:
CC(=O)N(Cc1ccccc1)[C@@H](C)C(=O)N(C)[C@@H](C)C(=O)N(Cc1c[nH]c2ccccc12)[C@@H](C)C(=O)N(C)[C@@H](C)C(=O)N(CCC(C)C)[C@@H](C)C(N)=O
Hill coefficient (E3 ubiquitin-protein ligase Mdm2 (MDM2, Homo sapiens, UniProt Q00987); binding, fluorescence polarization competition; together with: fluorescent PMI peptide): 1.06 ± 0.05

Cc1ccc(NC(=O)NC(C)(C)c2cccc(NC3=CC(=O)N(C4CCC(=O)NC4=O)C3=O)c2)cc1Cl (centres unmarked)
log2 fold change (Cereblon/Ikaros (Homo sapiens, UniProt Q13422+Q96SW2); degrader, quantitative proteomics, measured: protein abundance; Jurkat; 1 µM, 4 h; relative to: DMSO): -1.74
